Results of several laboratories.
Each line is one published result; not all experiments were run side by side. Numbers after ± are the reported error.
HLA class I histocompatibility antigen, A alpha chain allele A*24:02: HLA class I histocompatibility antigen, A alpha chain, allele A*24:02 (Homo sapiens, UniProt P04439)
Fibroin-modulator-binding protein-1: Fibroin-modulator-binding protein-1 99-193 (Bombyx mori, UniProt Q5FBS0)

Substance = TSTVQLIMQL; target or system = HLA class I histocompatibility antigen, A alpha chain allele A*24:02; test = conformational ELISA; test system = peptide; setting = concentration not given; how to read = reference: positive control peptide, direction not given; measurement = binding score; result = 2%
Substance = colistin; target or system = Escherichia coli; test = broth microdilution; test system = clinical isolate RKI-No_75/15; measurement = MIC; result = ≤ 0.5 mg/L
Substance = cotadutide; test = metabolomics, measured: hepatic leucine; test system = ob/ob mice on AMLN diet, NASH model, liver; setting = dose not given; measurement = metabolite level; result = 1.04 ± 0.02 scaled intensity
Substance = GSGAGKETYY; target or system = human MAGI1-3/6 PDZ construct (MBP fusion); test = automated holdup; test system = peptide, purified PDZ protein; setting = concentration not given, unit not given; how to read = reference: biotin control resin, higher = stronger binding; measurement = binding intensity; result = -0.043
Substance = human LDL receptor; test = co-immunoprecipitation; test system = human RBC cytosol; setting = DSSO crosslinker, unit not given, together with: Band 3 peptide 1-56 bait; how to read = reference: negative control; measurement = co-IP enrichment; result = 0
Substance = LMPFGSLLDYV; target or system = HLA class I histocompatibility antigen, A alpha chain allele A*24:02; test = conformational ELISA; test system = peptide; setting = concentration not given; how to read = reference: positive control peptide, direction not given; measurement = binding score; result = 2.7%
Substance = TLLQWVTQI; target or system = Jurkat T cells expressing 1G4 TCR; test = NFAT-eGFP reporter, fluorescence microscopy; test system = peptide; setting = concentration not given, HLA-A*02:01 NY-ESO system; measurement = reporter activation; result = 27.7%
Substance = GGGAGAACUUCGACCAGAAGUAGCUCCGCGCGCACGUUACGCGAAAACGUUCUGCCCGCCUAUGUGCGCAUACAUGGAUCCUC (ssRNA; 2'-fluoro pyrimidines); target or system = integrin alphaV/beta3 31-992/27-718 (Homo sapiens); test = SPR; test system = RNA; setting = together with: MnCl2 1 mM; how to read = higher = more binding; measurement = relative binding; result = 153 RU
Substance = Peginesatide; target or system = UT7/EPO; test = MesoScale phosphorylation; setting = mediators other than p38; how to read = reference: compound over rHuEPO; measurement = EC50 ratio; result = ~50 fold
Substance = VMRLQSETSV; target or system = human MAGI1-3/6 PDZ construct (MBP fusion); test = automated holdup; test system = peptide, crude extract; setting = concentration not given, uncorrected, unit not given; how to read = reference: biotin control resin, higher = stronger binding; measurement = binding intensity; result = 0.189
Substance = hemoglobin beta; test = co-immunoprecipitation; test system = human RBC cytosol; setting = unit not given, together with: Band 3 peptide 1-56 bait; how to read = reference: negative control; measurement = co-IP enrichment; result = 2.9
Substance = NPDALPETLV; target or system = human MAGI1-2/6 PDZ construct (MBP fusion); test = surface plasmon resonance; test system = peptide; setting = concentration not given; how to read = higher = stronger binding; measurement = normalised SPR binding response; result = 23.7 normalised RU
Substance = human serum albumin; test = co-immunoprecipitation; test system = human RBC cytosol; setting = unit not given, together with: Band 3 peptide 1-56 bait; how to read = reference: negative control; measurement = co-IP enrichment; result = 1.17
Substance = epoetin alfa; target or system = UT7/EPO; test = RT-qPCR, measured: KLF6; setting = concentration not given, 90 min, normalized to HPRT1; how to read = reference: vehicle; measurement = mRNA level; result = 4.6 fold
Substance = ALFQWISGA; target or system = Jurkat T cells expressing 1G4 TCR; test = NFAT-eGFP reporter, flow cytometry; test system = peptide; setting = concentration not given, HLA-A*02:01 NY-ESO system; measurement = reporter activation; result = 0.095%
Substance = tripeptidyl peptidase 2; test = co-immunoprecipitation; test system = human RBC membrane; setting = unit not given, together with: Band 3 peptide 1-56 bait; how to read = reference: negative control; measurement = co-IP enrichment; result = 0
Substance = GLGQWLALA; target or system = Jurkat T cells expressing 1G4 TCR; test = NFAT-eGFP reporter, fluorescence microscopy; test system = peptide; setting = concentration not given, HLA-A*02:01 NY-ESO system; measurement = reporter activation; result = 0.0176%
Substance = human complement C3; test = co-immunoprecipitation; test system = human RBC membrane; setting = no crosslinker, unit not given, together with: Band 3 peptide 1-56 bait; how to read = reference: negative control; measurement = co-IP enrichment; result = 0
Substance = ALMHWITQV; target or system = Jurkat T cells expressing 1G4 TCR; test = NFAT-eGFP reporter, fluorescence microscopy; test system = peptide; setting = concentration not given, HLA-A*02:01 NY-ESO system; measurement = reporter activation; result = 0.991%
Substance = 11-deoxycorticosterone; target or system = CYP11B2 (human); test = substrate binding, stopped-flow global kinetic fitting; test system = purified enzyme; setting = model, 4-state, linear IF, together with: no adrenodoxin; measurement = Kd; result = 3740 nM
Substance = GSGAGSETSV; target or system = human SCRIB PDZ3-4 tandem (MBP fusion); test = automated holdup; test system = peptide, crude extract; setting = concentration not given, corrected by standard peak, unit not given; how to read = reference: biotin control resin, higher = stronger binding; measurement = binding intensity; result = 0.848
Substance = MTVCNASQRQAHAQATAVSL; target or system = Huh-7 liver cancer; test = phage binding output/input; test system = peptide; how to read = reference: control phage; measurement = selectivity ratio; result = 250 ± 72
Substance = GLLQWVTQV; target or system = Jurkat T cells expressing 1G4 TCR; test = NFAT-eGFP reporter, fluorescence microscopy; test system = peptide; setting = concentration not given, HLA-A*02:01 NY-ESO system; measurement = reporter activation; result = 27.4%
Substance = SVWLRKETRV; target or system = human MAGI1-2/6 PDZ construct (MBP fusion); test = automated holdup; test system = peptide, crude extract; setting = concentration not given, corrected by standard peak, unit not given; how to read = reference: biotin control resin, higher = stronger binding; measurement = binding intensity; result = 0.868
Substance = ATCCATCCATCC (dsDNA); target or system = Fibroin-modulator-binding protein-1; test = ITC; test system = double-stranded DNA, one strand shown; measurement = Kd; result = 2040 ± 201 nM
Substance = GLMQWVSQV; target or system = Jurkat T cells expressing 1G4 TCR; test = NFAT-eGFP reporter, fluorescence microscopy; test system = peptide; setting = concentration not given, HLA-A*02:01 NY-ESO system; measurement = reporter activation; result = 16%
Substance = GSGAGIATEV; target or system = human MAGI1-3/6 PDZ construct (MBP fusion); test = automated holdup; test system = peptide, purified PDZ protein; setting = concentration not given, unit not given; how to read = reference: biotin control resin, higher = stronger binding; measurement = binding intensity; result = -0.0903
Substance = GGGAGAACUUCGACCAGAAGUGCCAUAAGCAUACGCAACAAACUCGCCUGCCUUGCUUAGUAUGUGCGCAUACAUGGAUCCUC (ssRNA; 2'-fluoro pyrimidines); target or system = integrin alphaV/beta3 31-992/27-718 (Homo sapiens); test = SPR; test system = RNA; setting = together with: MnCl2 1 mM; how to read = higher = more binding; measurement = relative binding; result = 55.5 RU
Substance = CCT3; test = co-immunoprecipitation; test system = human RBC cytosol; setting = DMTMM crosslinker, unit not given, together with: Band 3 peptide 1-56 bait; how to read = reference: negative control; measurement = co-IP enrichment; result = 22500
Substance = QSARYRDTEL; target or system = human MAGI1-2/6 PDZ construct (MBP fusion); test = automated holdup; test system = peptide, crude extract; setting = concentration not given, uncorrected, unit not given; how to read = reference: biotin control resin, higher = stronger binding; measurement = binding intensity; result = 0.0758
Substance = GLAQWMARA; target or system = Jurkat T cells expressing 1G4 TCR; test = NFAT-eGFP reporter, fluorescence microscopy; test system = peptide; setting = concentration not given, HLA-A*02:01 NY-ESO system; measurement = reporter activation; result = 0.00407%
Substance = TASPAKETSF; target or system = human MAGI1-3/6 PDZ construct (MBP fusion); test = automated holdup; test system = peptide, crude extract; setting = concentration not given, corrected by standard peak, unit not given; how to read = reference: biotin control resin, higher = stronger binding; measurement = binding intensity; result = -0.0432
Substance = hemoglobin alpha; test = co-immunoprecipitation; test system = human RBC membrane; setting = DSSO crosslinker, unit not given, together with: Band 3 peptide 1-56 bait; how to read = reference: negative control; measurement = co-IP enrichment; result = 38
Substance = GLGQWISRA; target or system = Jurkat T cells expressing 1G4 TCR; test = NFAT-eGFP reporter, fluorescence microscopy; test system = peptide; setting = concentration not given, HLA-A*02:01 NY-ESO system; measurement = reporter activation; result = 0.00369%
Substance = ATGCATGCATGC (dsDNA); target or system = Fibroin-modulator-binding protein-1; test = ITC; test system = double-stranded DNA, one strand shown; measurement = Kd; result = 1590 ± 150 nM
Substance = human GAPDH; test = co-immunoprecipitation; test system = human RBC membrane; setting = unit not given, together with: Band 3 peptide 1-56 bait; how to read = reference: negative control; measurement = co-IP enrichment; result = 10.8
Substance = QHVKITDFGR; target or system = HLA class I histocompatibility antigen, A alpha chain allele A*24:02; test = MHC class I stabilisation, flow cytometry; test system = peptide, TAP2-knockout TISI monoallelic cells; setting = 25 µM, 18 h, 37 °C, together with: β2-microglobulin 3 µg/mL; how to read = reference: DMSO; measurement = HLA class I surface increase; result = 2.2%

Excerpt of the above:
Substance = human serum albumin; test = co-immunoprecipitation; test system = human RBC cytosol; setting = unit not given, together with: Band 3 peptide 1-56 bait; how to read = reference: negative control; measurement = co-IP enrichment; result = 1.17
Substance = epoetin alfa; target or system = UT7/EPO; test = RT-qPCR, measured: KLF6; setting = concentration not given, 90 min, normalized to HPRT1; how to read = reference: vehicle; measurement = mRNA level; result = 4.6 fold
Substance = ALFQWISGA; target or system = Jurkat T cells expressing 1G4 TCR; test = NFAT-eGFP reporter, flow cytometry; test system = peptide; setting = concentration not given, HLA-A*02:01 NY-ESO system; measurement = reporter activation; result = 0.095%
Substance = tripeptidyl peptidase 2; test = co-immunoprecipitation; test system = human RBC membrane; setting = unit not given, together with: Band 3 peptide 1-56 bait; how to read = reference: negative control; measurement = co-IP enrichment; result = 0
